# Measurements from different studies.
# Numbered parts are unrelated; each lists some results of a single study. Values joined by “and” are separate records of one study, mostly repeats; a detail may differ.
# Chain of UniProt Q01959 (whole entry, looked up): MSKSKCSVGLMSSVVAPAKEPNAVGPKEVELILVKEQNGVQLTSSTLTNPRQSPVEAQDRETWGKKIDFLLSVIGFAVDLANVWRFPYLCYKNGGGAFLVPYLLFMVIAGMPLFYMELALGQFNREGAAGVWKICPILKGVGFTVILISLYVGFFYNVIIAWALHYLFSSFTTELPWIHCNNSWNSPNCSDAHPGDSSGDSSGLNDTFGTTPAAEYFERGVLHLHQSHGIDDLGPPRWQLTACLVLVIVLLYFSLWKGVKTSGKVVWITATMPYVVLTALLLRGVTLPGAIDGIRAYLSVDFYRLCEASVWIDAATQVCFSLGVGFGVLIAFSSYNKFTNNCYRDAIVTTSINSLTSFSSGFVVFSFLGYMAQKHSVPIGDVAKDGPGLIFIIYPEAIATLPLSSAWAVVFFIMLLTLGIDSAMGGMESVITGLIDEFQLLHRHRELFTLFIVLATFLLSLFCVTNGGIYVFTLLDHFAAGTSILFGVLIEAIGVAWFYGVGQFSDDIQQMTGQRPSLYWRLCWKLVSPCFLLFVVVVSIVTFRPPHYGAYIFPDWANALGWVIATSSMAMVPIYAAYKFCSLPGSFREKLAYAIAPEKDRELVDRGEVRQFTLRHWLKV

# Sample 1
# Target: Histone acetyltransferase KAT6A, both winged helices, GST fusion (KAT6A, Homo sapiens, UniProt Q92794, residues 1-181)
# Technique: protein binding microarray
# Form: double-stranded DNA, one strand shown
# Medium: in vitro
# Tested at: not given
# Notes: 8-mer, flanks averaged, mean of 2 arrays, mostly near background
# Relative to: not given
# Reading: higher = stronger binding
# Construct (chain): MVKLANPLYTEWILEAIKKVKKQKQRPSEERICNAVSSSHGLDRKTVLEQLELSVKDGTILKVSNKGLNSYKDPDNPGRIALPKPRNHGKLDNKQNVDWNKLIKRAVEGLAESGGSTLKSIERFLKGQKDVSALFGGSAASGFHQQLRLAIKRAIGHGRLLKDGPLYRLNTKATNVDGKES
Strand,E-score
GAAACAGA,0.00346
ACGTTCCC,0.0986
AAAAGACA,0.0106
CTACGCCC,0.108
GACCCTGC,-0.0418
AACCATAG,-0.00848
AGTGACGC,0.158
AAAATAGT,-0.115

# Sample 2
# Target: HLA class I histocompatibility antigen, A alpha chain, allele A*25:01 (Homo sapiens, UniProt P04439)
# Effect on: peptide-MHC binding
# Form: peptide
# Tested at: concentration not given
Molecule,binding
TPSGKRLQI,inactive
MQIDGGEGV,inactive
WQQWDRQSL,inactive
IVDCLTEMYY,inactive
NTAINFFLY,inactive
LARFPCNVI,inactive
YNAKRIETV,inactive
PLFPGITRV,inactive
QLEVRSTEV,inactive
RLKHIFLIF,inactive
KSRQGDTKV,inactive
AMPKTIYEL,inactive
LQPSDTLLF,inactive
MSQMPPHPY,inactive
EVNAHIHTM,active
GLSFLNPEK,inactive
RTFDRFFEE,inactive

# Sample 3
# Target: Interferon regulatory factor 5, full length, phosphomimetic (IRF5, Homo sapiens, UniProt Q13568-2, residues 1-514, S451D/S453D/S456D/S462D)
# Technique: protein-binding microarray
# Form: double-stranded DNA, one strand shown
# Medium: in vitro
# Tested at: 940 nM top
# Notes: 60-bp whole probe
# Added: salmon DNA 0.4 mg/ml
# Relative to: random background probes
# Reading: higher = stronger binding
# Constant ends, left off below: GCCTAGCAC … GTCTTGATTCGCTTGACGCTGCTG
Strand,fitted relative affinity [z-score]
GACGATCTCTGTATCGAGACGTGCTAG,0.709
TTAGATCTCGGACTGGATTAGTGCTAG,-0.0205
GACGGTTCCCTTTTCATGACGTGCTAG,1.03
GGAGTTTCCACCCTTCTCTCGTGCTAG,1.68
TTCATTATTGTTTCCTTCCTGTGCTAG,1.79
TTAGGAGTGGGACTGGGTTAGTGCTAG,-0.0335
GACGGTATCCGGTTTCGGGACGTGCTA,3.19
TCAGTTTCACTTTCCAAACTGTGCTAG,10.9

# Further values, each from its own experiment
# DRD5: D(1B) dopamine receptor (DRD5, Homo sapiens, UniProt P21918)
SMILES,target or system,test,setting,measurement,value
COCc1nc2cnc3cc(-c4c(C)noc4C)c(OC[C@H]4CCNC4)cc3c2n1[C@H](C)c1ccccc1,DRD5,"binding, radioligand binding",10 µM,inhibition,31.7%
CC(C)(C)c1cnc(CSc2cnc(NC(=O)C3CCN(CCCCCSc4cccc5c4CN(C4CCC(=O)NC4=O)C5=O)CC3)s2)o1 (stereo not shown),HEK293T,trypan blue exclusion,"100 nM, 24 h",viability,93% and 85.3% and 93.1%
CCc1ccccc1C(=O)Nc1n[nH]c2c(C)c(F)c(C3C(C#N)=C(C)N(C)C(C)=C3C#N)cc12,"SLC6A3 (Homo sapiens, UniProt Q01959)",ligand displacement,10 µM,inhibition,-11.3%
Cc1c(N2CCCC2)nc2ccc(Br)cc2c1C(=O)NC[C@H](CCC(=O)O)c1ccccc1Cl,DRD5,"binding, radioligand binding",10 µM,inhibition,25%
